Experimental data of several laboratories.
Protocols differ between the studies behind these lines. ± marks the error that the study gave.

Under “treatment-related adverse events”, `CCCCCCCCCCCCCCCC(=O)N[C@@H](CCC(=O)NCCCC[C@H](NC(=O)[C@H](CC(=O)O)NC(=O)[C@H](CO)NC(=O)[C@@H](NC(=O)[C@H](Cc1ccccc1)NC(=O)[C@@H](NC(=O)CNC(=O)[C@H](CCC(N)=O)NC(=O)[C@H](CO)NC(=O)[C@@H](N)Cc1c[nH]cn1)[C@@H](C)O)[C@@H](C)O)C(=O)N[C@@H](CO)C(=O)N[C@@H](CCC(=O)O)C(=O)N[C@@H](Cc1ccc(O)cc1)C(=O)N[C@@H](CC(C)C)C(=O)N[C@@H](CC(=O)O)C(=O)N[C@@H](CO)C(=O)N[C@@H](CCC(=O)O)C(=O)N[C@@H](CCCNC(=N)N)C(=O)N[C@@H](C)C(=O)N[C@@H](CCCNC(=N)N)C(=O)N[C@@H](CC(=O)O)C(=O)N[C@@H](Cc1ccccc1)C(=O)N[C@H](C(=O)N[C@@H](C)C(=O)N[C@@H](Cc1c[nH]c2ccccc12)C(=O)N[C@@H](CC(C)C)C(=O)N[C@@H](CCC(=O)O)C(=O)N[C@@H](C)C(=O)NCC(=O)NCC(=O)O)C(C)C)C(=O)O` is recorded as 0% (item: Diarrhoea; humans CrCl 20 to 30 mL/min; subcutaneous, 100 µg single dose).
`Cc1ccccc1NC(=O)Nc1ccc(CC(=O)N[C@@H](CCCCNC(=O)/C=C/c2cccnc2)C(=O)N[C@@H](CCCC(=O)O)C(=O)NC2(C(=O)NCCOCCOCCOCCOCC(=O)N[C@@H](CCCCNC(=S)Nc3ccc(CCCN(CCN4CCN(CC(=O)O)CCN(CC(=O)O)CC4)CP(=O)(O)O)cc3)C(N)=O)CCCCC2)cc1` [gallium-68 labelled] gave a log D of -1.8 ± 0.03 (shake flask; octanol/PBS; pH 7.4).
`CC1=C(C)C(=O)C(CCCCC#CCCCC#CCO)=C(C)C1=O` gave an IC50 of 7.94 µM (Plasmodium falciparum; 3D7).
`Nc1nc2cc(-c3ccc4ncc(C(=O)N5CCOCC5)n4c3)ccc2o1` — result for “elevated ALT adverse events”: 38% (human, advanced solid tumours; 100–300 mg once daily).
`Clc1cc(Cl)c(-c2ccc(Cl)c(Cl)c2Cl)cc1Cl` — result for “literature range factor”: 2 (PDMS-water partitioning; PCB compilation; reference: maximum over minimum K).
`CO[C@H]1C[C@@H]2CC[C@@H](C)[C@@](O)(O2)C(=O)C(=O)N2CCCC[C@H]2C(=O)O[C@H]([C@H](C)C[C@@H]2CC[C@@H](OC(=O)NCCOCCOCCOCCOCCOCCOCCOCCOCCC(=O)N3CCc4cc(Cn5nc(-c6ccc7oc(N)nc7c6)c6c(N)ncnc65)ccc4C3)[C@H](OC)C2)C[C@@H](O)[C@H](C)/C=C(\C)[C@@H](O)[C@@H](OC)C(=O)[C@H](C)C[C@H](C)/C=C/C=C/C=C/1C` — result for “AEs causing dose modification”: 31.3% (phase 1 dose escalation; advanced solid tumour patients; intravenous, 8 mg weekly, grade ≥3).
For `CC1(C)C(/C=C(\Cl)C(F)(F)F)C1C(=O)OC(C#N)c1cccc(Oc2ccccc2)c1` (stereo not drawn), the CLint was 546 µL/min/mg (pooled human liver cytosol).
`CN1CC[C@@H](c2c(O)cc(O)c3c(=O)cc(-c4ccc(C(F)(F)F)cc4Cl)oc23)[C@@H]1CO`: “patients with adverse event” 0% (item: Anorexia; AML; oral, 150 mg, intermittent dosing).
With `C=CC[N+]1([C@H]2C[C@H]3[C@@H]4CC[C@H]5C[C@H](O)[C@@H](N6CCOCC6)C[C@]5(C)[C@H]4CC[C@]3(C)[C@H]2OC(C)=O)CCCC1` the AUC(0-t) was 38 ng·h/mL (Sprague Dawley rat, plasma; intravenous, 0.2 mg/kg, together with: vehicle IV).
With `CC/C(=N\NC(=O)c1ccc(F)cc1)c1cc(Cl)cc(Cl)c1O` the IC50 was over 50 µM (Gag-Pol polyprotein, integrase with LEDGF/p75 (gag-pol, Human immunodeficiency virus 1, UniProt P12497); LEDGF/p75-integrase interaction, inhibitor, AlphaScreen).
Under “adverse event Erythema”, `O=C(Nc1ccccc1)C1CCN(C(=O)Oc2cccnc2)CC1` is recorded as 0% (healthy women; oral, 100 mg, 9 days).
`C[C@]1(CO)Cc2ncn(-c3ccc(C#N)c(Cl)c3)c2C(=O)O1`: “accumulation ratio of AUC” 1 (healthy Japanese adults, plasma; 3 mg once daily, dosing interval 24 h).
The lymphocytes of `COc1ccc2nc3cc(Cl)ccc3c(Nc3cc(CN4CCCC4)c(O)c(CN4CCCC4)c3)c2n1` is reported as 66.7% (mouse, blood; intraperitoneal, 14 mg/kg).
The anemia patients of `CCN(CCO)CCCC(C)Nc1ccnc2cc(Cl)ccc12` (stereo not drawn) is reported as 14% (newly diagnosed glioblastoma patients; oral, 400 mg/dose, grade 4, together with: radiotherapy and temozolomide).
With `COc1ccccc1N1CCN(CCCCNC(=O)c2ccc3ccccc3c2)CC1` the IC50 was 2 µM (Plasmodium falciparum; 3D7).
`CC(C)(C)c1cc(-n2nc3ccccc3n2)c(O)c(C(C)(C)C)c1`: “daily dermal exposure dose” 19.1 ng/kg/day (human aged 6-11 years; concentration not given, spray sunscreen, 95th percentile).
`[O-][S+]1CCc2nc(N3CCC(c4ncc(Cl)cn4)CC3)nc(NC3(CO)CCC3)c21` (stereo not drawn) — result for “subjects with adverse events”: 0% (phase I trial, item: oral hypoaesthesia; healthy male volunteers; dose not given, single rising dose, all cohorts).
`O=S(=O)(Nc1ccccc1)c1ccc(NC(=S)Nc2ccccc2)cc1` — result for “blood cell fraction”: 4.58% (item: MO%; male mouse, blood; oral, 5 mg/kg daily, 14 days).
`N.N.[Cl][Pt][Cl]` gave a body weight of 25.2 g (mouse xenograft model; dose not given, day 0, group mean).
Under “mean amount excreted in urine”, `N=C(N)NCCC[C@@H](NC(=O)[C@@H](N)Cc1ccccc1)C(=O)N[C@@H](Cc1ccccc1)C(=O)N[C@@H](CCCCN)C(N)=O` is recorded as 111000 ng (LC-MS; human; 5 mg, 23.83 h).
`CC(C)C[C@@H]1NC(=O)[C@H](CC(N)=O)NC(=O)[C@H](CCCNC(=N)N)NC(=O)[C@H]([C@@H](C)O)NC(=O)[C@@H]2CSSC[C@@H]3NC(=O)[C@H]([C@@H](C)O)NC(=O)CNC(=O)CNC(=O)[C@H](C(C)C)NC(=O)[C@@H]4CSSC[C@H](NC(=O)[C@H](CCCCN)NC(=O)[C@H](CSSC[C@H](NC(=O)[C@H](C(C)C)NC(=O)[C@@H]5CCCN5C(=O)[C@H](CC(C)C)NC1=O)C(=O)NCC(=O)N[C@@H](CCC(=O)O)C(=O)N[C@@H]([C@@H](C)O)C(=O)N4)NC(=O)CNC(=O)[C@@H]1CCCN1C(=O)[C@H]([C@@H](C)O)NC(=O)[C@H](CC(N)=O)NC3=O)C(=O)N[C@@H](CO)C(=O)N[C@@H](Cc1c[nH]c3ccccc13)C(=O)N1CCC[C@H]1C(=O)N[C@@H](C(C)C)C(=O)N2` gave a remaining peptide of 97.2 ± 0.9% (HPLC; ammonium bicarbonate; 180 µM, 14 days, pH 9.0, 25 °C, deamidation stability).
For `Cc1cc(NC2CCN(C(=O)OC3CCN(C(=O)/C=C/CN(C)C)C3)CC2)n2ncc(C(C)C)c2n1` (stereo not drawn), the MTD was 36 mg/m2 (rat; oral, daily for 4 weeks, body surface area normalised).
`CN1CCN(c2ccc(Nc3nccc(-c4ccnc(NCc5ccccc5)c4)n3)cc2C(F)(F)F)CC1` gave a toxicity of 0 ± 15% (zebrafish embryos; 25 µM, 5 d).
With `COc1ncccc1-c1cnn2ccc(N3CCN(C(=O)OC(C)C)CC3)nc12` the drug concentration was 13 µM (mouse, formalin test, plasma; oral, 30 mg/kg, 60 min).
Under “body weight gain”, `CCOc1cc(Oc2ccc(C(F)(F)F)cc2Cl)ccc1[N+](=O)[O-]` is recorded as 26.3% (rat, male; 250 mg/kg, 4 days).
For `CC(C)(O)c1cc(Nc2cc(Oc3cn(C4CC4)nc3C3CCOCC3)ccn2)ccn1`, “treatment-emergent adverse events” read 0% (Asthenia; advanced cancer patients, dose escalation; oral, dose not given, 2 weeks on/off, all causality grade ≥3).
`c1ccc2c(c1)-c1cccc3c1c-2cc1ccccc13` has a log K(PDMS-water) of 5.16 ± 0.02 (fresh water; 12 (unit not given), 20 °C, SSP sampler, 100 µm).
With `CC(C)[C@@H]1NC(=O)CNC(=O)[C@H](CC(N)=O)NC(=O)[C@H](CCCNC(=N)N)NC(=O)[C@H](Cc2ccc(O)cc2)NC(=O)[C@H](C(C)C)NC(=O)[C@@H](NC(=O)[C@@H](NC(=O)[C@H](CC(N)=O)NC(=O)[C@H](Cc2c[nH]c3ccccc23)NC(=O)[C@H](C)NC(=O)[C@H](Cc2ccccc2)NC(=O)CN)C(C)C)CSSC[C@@H](C(=O)N[C@@H](Cc2cnc[nH]2)C(=O)N[C@@H](CCCNC(=N)N)C(=O)N[C@@H](CCCNC(=N)N)C(=O)N[C@@H](C)C(=O)N[C@@H](CC(N)=O)C(N)=O)NC(=O)[C@H](C(C)C)NC(=O)[C@H](CCCNC(=N)N)NC1=O` the lymphocytes was 76.28 ± 0.6% (ICR mouse, blood; intramammary, 5 mg/kg, day 5, 3 d dosing).
Under “grade 1 or 2 Diarrhoea”, `COc1cc2c(Oc3ccc4[nH]c(C)cc4c3F)ccnc2cc1OCC1(N)CC1` is recorded as 63.6% (paediatric recurrent refractory sarcoma; 12 mg).
`CC/C(=C(\c1ccccc1)c1ccc(OCCN(C)C)cc1)c1ccccc1` gave an AUC(0-t) of 523 ng·h/mL (CD-1 mouse, male, plasma; intraperitoneal, 10 mg/kg).
`O=C(O)CCCOc1ccc(F)cc1-c1cc(-c2ccccc2C(F)(F)F)n(-c2ccccc2)n1` has a blood chemistry of 0.13 ± 0.01 mg/dL (item: T-Bil; Crl:CD(SD) rats, female, blood; iv, 25 µg/kg, 14 days).
`C[C@@H]1NC(=O)[C@H](CCCCNC(=O)CO/N=C/C(=O)NCCCC[C@@H]2NC(=O)[C@@H](Cc3ccccc3)NC(=O)[C@H](CC(=O)O)NC(=O)CNC(=O)[C@H](CCCNC(=N)N)NC2=O)NC(=O)CNC(=O)[C@@H]2CCCN2C(=O)[C@H](CCCCNC(=O)CO/N=C/C(=O)NCCCC[C@@H]2NC(=O)[C@@H](Cc3ccccc3)NC(=O)[C@H](CC(=O)O)NC(=O)CNC(=O)[C@H](CCCNC(=N)N)NC2=O)NC(=O)[C@H](CCCCNC(=O)[C@H](CCCCN)NC(=O)[C@H](Cc2ccccc2)NC(=O)CNC(=O)CN2CCCNCCNCCCNCC2)NC(=O)[C@H](CCCCNC(=O)CO/N=C/C(=O)NCCCC[C@@H]2NC(=O)[C@@H](Cc3ccccc3)NC(=O)[C@H](CC(=O)O)NC(=O)CNC(=O)[C@H](CCCNC(=N)N)NC2=O)NC(=O)CNC(=O)[C@@H]2CCCN2C(=O)[C@H](CCCCNC(=O)CO/N=C/C(=O)NCCCC[C@@H]2NC(=O)[C@@H](Cc3ccccc3)NC(=O)[C@H](CC(=O)O)NC(=O)CNC(=O)[C@H](CCCNC(=N)N)NC2=O)NC1=O` [copper-64 labelled] has a tissue uptake of 3.31 ± 0.42 %ID/g (normal mice, spleen; intravenous, 0.74 MBq, 24 h post-injection).
`c1ccc2cc3c(cc2c1)-c1cccc2cccc-3c12`: “literature range factor” 4 (polyethylene-water partitioning; PAH compilation; reference: maximum over minimum K).
`Cn1cncc1-c1c(F)cncc1NC(=O)c1c(N)nn2cc(F)cnc12` — result for “dose-limiting toxicity anaemia”: 0% (human patients; oral, 220 mg once daily, 21 days).
Under “elimination rate constant”, `CC(=O)c1c(C)c2cnc(Nc3ccc(C4CCN(CCS(C)(=O)=O)CC4)cn3)nc2n(C2CCCC2)c1=O` is recorded as 2.78e-05 s⁻¹ (human patients, plasma; oral, 100 mg twice daily, day 21 multiple doses).
For `CC(C)C[C@@H]1NC(=O)CNC(=O)[C@H](CC(N)=O)NC(=O)[C@H](CCCNC(=N)N)NC(=O)[C@H]([C@@H](C)O)NC(=O)[C@@H]2CSSC[C@@H]3NC(=O)[C@H]([C@@H](C)O)NC(=O)CNC(=O)CNC(=O)[C@H](C(C)C)NC(=O)[C@@H]4CSSC[C@H](NC(=O)[C@H]([C@@H](C)O)NC(=O)[C@H](CSSC[C@H](NC(=O)[C@H](C(C)C)NC(=O)[C@@H]5CCCN5C1=O)C(=O)NCC(=O)N[C@@H](CCCCN)C(=O)N[C@@H]([C@@H](C)O)C(=O)N4)NC(=O)CNC(=O)[C@@H]1CCCN1C(=O)[C@H]([C@@H](C)O)NC(=O)[C@H](CC(N)=O)NC3=O)C(=O)N[C@@H](CO)C(=O)N[C@@H](Cc1c[nH]c3ccccc13)C(=O)N1CCC[C@H]1C(=O)N[C@@H](C(C)C)C(=O)N2`, the remaining peptide was 0% (HPLC; ammonium bicarbonate 0.1 M; 180 µM, 14 days, pH 9.0, 37 °C, deamidation stability).

A few entries again:
`CC/C(=C(\c1ccccc1)c1ccc(OCCN(C)C)cc1)c1ccccc1` gave an AUC(0-t) of 523 ng·h/mL (CD-1 mouse, male, plasma; intraperitoneal, 10 mg/kg).
`O=C(O)CCCOc1ccc(F)cc1-c1cc(-c2ccccc2C(F)(F)F)n(-c2ccccc2)n1` has a blood chemistry of 0.13 ± 0.01 mg/dL (item: T-Bil; Crl:CD(SD) rats, female, blood; iv, 25 µg/kg, 14 days).
`C[C@@H]1NC(=O)[C@H](CCCCNC(=O)CO/N=C/C(=O)NCCCC[C@@H]2NC(=O)[C@@H](Cc3ccccc3)NC(=O)[C@H](CC(=O)O)NC(=O)CNC(=O)[C@H](CCCNC(=N)N)NC2=O)NC(=O)CNC(=O)[C@@H]2CCCN2C(=O)[C@H](CCCCNC(=O)CO/N=C/C(=O)NCCCC[C@@H]2NC(=O)[C@@H](Cc3ccccc3)NC(=O)[C@H](CC(=O)O)NC(=O)CNC(=O)[C@H](CCCNC(=N)N)NC2=O)NC(=O)[C@H](CCCCNC(=O)[C@H](CCCCN)NC(=O)[C@H](Cc2ccccc2)NC(=O)CNC(=O)CN2CCCNCCNCCCNCC2)NC(=O)[C@H](CCCCNC(=O)CO/N=C/C(=O)NCCCC[C@@H]2NC(=O)[C@@H](Cc3ccccc3)NC(=O)[C@H](CC(=O)O)NC(=O)CNC(=O)[C@H](CCCNC(=N)N)NC2=O)NC(=O)CNC(=O)[C@@H]2CCCN2C(=O)[C@H](CCCCNC(=O)CO/N=C/C(=O)NCCCC[C@@H]2NC(=O)[C@@H](Cc3ccccc3)NC(=O)[C@H](CC(=O)O)NC(=O)CNC(=O)[C@H](CCCNC(=N)N)NC2=O)NC1=O` [copper-64 labelled] has a tissue uptake of 3.31 ± 0.42 %ID/g (normal mice, spleen; intravenous, 0.74 MBq, 24 h post-injection).
`c1ccc2cc3c(cc2c1)-c1cccc2cccc-3c12`: “literature range factor” 4 (polyethylene-water partitioning; PAH compilation; reference: maximum over minimum K).
